Experimental data pooled from the literature.
Lines come from different studies, so protocols differ.
B1: enzyme S252E/S281E/S285E/S287E (Schizosaccharomyces pombe, UniProt P78804); chain MSTPYEPEFQQAYKEIVGSIESSKLFEVHPELKRVLPIISIPERVLEFRVTWEDDKGNCRVNTGYRVQFNSALGPYKGGLRFHPSVNLSILKFLGFEQIFKNALTGLPMGGGKGGSDFDPKGKSDNEIRRFSQAFMRQLFRYIGPQTDVPAGDIGVTGFVVMHMFGEYKRLRNEYSGVVTGKHMLTGGSNIRPEATGYGVVYYVKHMIEHRTKGAETLKGKRVAISGSGNVAQYAALKCIQEGAIVKSISDEKGVLIAKTAEGLVPEEIHEIMALKEKRAEIADEAELCKKHHYIAGARPWTNVGEIDIALPCATQNEVSGEEAAALIKQGCRYVAEGSNMGSSAEAVEVFEKSRASGEGCWLAPGKAANAGGVAVSGLEMAQNAQFSTWTHAEVDAKLAGIMQNIFEQSTDVASKYCDSGSNNIPSLVDGANIAGFLKVATAMQAVGDWW
B2: SCO6712 S292F/Y229F (Streptomyces coelicolor, UniProt Q9XAL8); chain AKGITARTAPAGGEVRHLKMYAEKLADGQMGYGFEKGKASVPGPLIEVNEGDTLHIEFTNTMDVRASLHVHGLDYEISSDGTAMNKSDVEPGGTRTYTWRTHKPGRRDDGTWRPGSAGYWHYHDHVVGTEHGTGGIRNGLYGPVIVRRKGDVLPDATHTIVFNDMTINNRKPHTGPDFEATVGDRVEIVMITHGEFYHTFHMHGHRWADNRTGILTGPDDPSRVIDNKITGPADSFGFQIIAGEGVGAGAWMYHCHVQFHSDMGMVGLFLVKKPDGTIPGYEPHEHGGATAKSGESGEPTGGAAAHEHEH
B3: PYCR2 R119C (Homo sapiens, UniProt Q96C36); chain MSVGFIGAGQLAYALARGFTAAGILSAHKIIASSPEMNLPTVSALRKMGVNLTRSNKETVKHSDVLFLAVKPHIIPFILDEIGADVQARHIVVSCAAGVTISSVEKKLMAFQPAPKVICCMTNTPVVVQEGATVYATGTHALVEDGQLLEQLMSSVGFCTEVEEDLIDAVTGLSGSGPAYAFMALDALADGGVKMGLPRRLAIQLGAQALLGAAKMLLDSEQHPCQLKDNVCSPGGATIHALHFLESGGFRSLLINAVEASCIRTRELQSMADQEKISPAALKKTLLDRVKLESPTVSTLTPSSPGKLLTRSLALGGKKD
B4: enzyme (Arabidopsis thaliana, UniProt Q9SRM3); chain MNNLDEIKIESKTCLNDQEQEVKIDNMHMSDQDKNKIEIKNKSGLGEKWPEPIVRVQSLAESNLTSLPDRYIKPPSQRPQTTIIDHQPEVADINIPIIDLDSLFSGNEDDKKRISEACREWGFFQVINHGVKPELMDAARETWKSFFNLPVEAKEVYSNSPRTYEGYGSRLGVEKGAILDWNDYYYLHFLPLALKDFNKWPSLPSNIREMNDEYGKELVKLGGRLMTILSSNLGLRAEQLQEAFGGEDVGACLRVNYYPKCPQPELALGLSPHSDPGGMTILLPDDQVVGLQVRHGDTWITVNPLRHAFIVNIGDQIQILSNSKYKSVEHRVIVNSEKERVSLAFFYNPKSDIPIQPMQQLVTSTMPPLYPPMTFDQYRLFIRTQGPRGKSHVESHISPR
B5: enzyme (Azotobacter vinelandii, UniProt C1DN94); chain MSESPLRLDRLRDFVSALGELLDRHPDEESVLREGRSLLGELVRHDDWLPEEFAQPDPERYQQYLLHADSRQRFSVVSFVWGPGQTTPVHDHRVWGLIGMLRGAEDAQSFELGAEGLRPIGDPVRLSPGQVEAVSPRIGDIHRVFNASPDQPSISIHVYGANIGAVRRAVYLPDGSEKPFISGYSNQFLPNIWDQSKESARP
B6: hpaB (Escherichia coli, UniProt Q57160); chain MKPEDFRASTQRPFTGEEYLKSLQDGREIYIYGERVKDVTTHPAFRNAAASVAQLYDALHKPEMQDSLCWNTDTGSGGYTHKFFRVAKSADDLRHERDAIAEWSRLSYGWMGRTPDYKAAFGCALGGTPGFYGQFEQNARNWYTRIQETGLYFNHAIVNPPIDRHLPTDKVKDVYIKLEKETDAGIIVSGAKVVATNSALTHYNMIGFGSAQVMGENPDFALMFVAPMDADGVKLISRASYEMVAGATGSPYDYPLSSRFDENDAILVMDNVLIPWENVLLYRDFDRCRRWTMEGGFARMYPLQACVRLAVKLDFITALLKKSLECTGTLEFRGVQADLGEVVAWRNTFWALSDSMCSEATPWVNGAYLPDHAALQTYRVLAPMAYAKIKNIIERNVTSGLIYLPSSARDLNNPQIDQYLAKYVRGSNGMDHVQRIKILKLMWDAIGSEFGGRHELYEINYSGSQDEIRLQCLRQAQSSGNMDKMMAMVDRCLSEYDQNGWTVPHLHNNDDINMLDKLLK
B7: enzyme (Enterococcus faecium, UniProt A0A132Z3A5); chain MAKELKFAEDARAAMLRGVDKLADTVKVTLGPKGRNVVLEKSYGSPLITNDGVTIAKEIELEDHFENMGAKLVSEVASKTNDIAGDGTTTATVLTQAIVREGLKNVTAGANPLGIRRGIELATKAAVEELHNISTVVDSKEAIAQVAAVSSGSDKVGHLIADAMEKVGNDGVITIEESKGIETELDVVEGMQFDRGYLSQYMVTDNDKMEAVLENPYILITDKKISNIQDILPLLEQILQQSRPLLIIADDVDGEALPTLVLNKIRGTFNVVAVKAPGFGDRRKAMLEDIAILTGGTVITDDLGLELKDVTIENLGNASKVVVDKDNTTIVEGSGEKEAIEARVQLIKNQIAETTSDFDREKLQERLAKLAGGVAVVKVGAATETELKELKLRIEDALNATRAAVEEGMVSGGGTALVNVISKVSAVEAEGDVATGIKIVVRALEEPIRQIAENAGYEGSVIVDKLKNVELGTGFNAATGEWVNMVEAGIVDPTKVTRSALQNAASVSALLLTTEAVVADKPEPAAPAAPAMDPSMMGGMM
B8: pyrB (Escherichia coli, UniProt P0A786); chain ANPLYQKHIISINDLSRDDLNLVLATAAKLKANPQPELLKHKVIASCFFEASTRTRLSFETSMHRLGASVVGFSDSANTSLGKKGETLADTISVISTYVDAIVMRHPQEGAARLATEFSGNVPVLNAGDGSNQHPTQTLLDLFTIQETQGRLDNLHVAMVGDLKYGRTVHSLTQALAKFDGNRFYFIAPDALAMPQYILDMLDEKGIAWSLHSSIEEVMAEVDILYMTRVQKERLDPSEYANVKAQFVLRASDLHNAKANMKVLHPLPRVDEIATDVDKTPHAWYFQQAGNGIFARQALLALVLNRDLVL
B9: enzyme D25A (Nitrosopumilus maritimus, UniProt A9A5X4); chain MDSQKFDSIIFDCDGVLVDITQSYAKTIDKTCRYVLKEFAKIDSITIDHKIIDGFKSSGGFNDEVDLVYAAILSLYTANKLNKKPSEFIYDVISNTDKTGIRSVQSYLESIYDVSEFLSKLGSLGDRHNNPVYSIFDQFFFGPELYGKLFDKQSKFSEEGMISNDKVILSVSLLETLQKEFGKKIAVVTGRGIESIRYSLKDMMDYFDTKNSAFLEDEPRELAKPNPATLIRAIQSMESKNCLYVGDSMEDYMMAKDAAQAGHSTTFCAIVGTSTNPEDRRKLFADSGVEMILESINDIPKVLNLV

For `B1 (enzyme S252E/S281E/S285E/S287E)`, the Km was 12000 µM (NC(=O)C1=CN([C@@H]2O[C@H](COP(=O)(O)OP(=O)(O)OC[C@H]3O[C@@H](n4cnc5c(N)ncnc54)[C@H](O)[C@@H]3O)[C@@H](O)[C@H]2O)C=CC1; steady-state kinetics; pH 7, 30 °C, apparent).
For `SEKHFRETEV`, the binding intensity was 0.165 (human MAGI1-3/6 PDZ construct (MBP fusion); automated holdup; peptide, crude extract; concentration not given, uncorrected, unit not given; reference: biotin control resin, higher = stronger binding).
`B2 (SCO6712 S292F/Y229F)` has a Km of 1500 µM (CCn1c(=NN=c2sc3cc(S(=O)(=O)O)ccc3n2CC)sc2cc(S(=O)(=O)O)ccc21; steady-state kinetics; pH 7, 37 °C, NaCl 150 mM, with: O2 cosubstrate).
The Km of `B3 (PYCR2 R119C)` is reported as 317 µM (O=C(O)[C@@H]1CCC=N1; steady-state kinetics; pH 7.5, 37 °C, apparent, with: NADH 500 µM).
The Km of `B4 (enzyme)` is reported as 68.9 µM (CC/C=C\C[C@@H]1C(=O)CC[C@@H]1CC(=O)O; steady-state kinetics; pH 7.5, 20 °C).
With `B5 (enzyme)` the Km was 11400 µM (N[C@@H](CS)C(=O)O; steady-state kinetics; pH 8, 25 °C, with: O2).
The Km of `B6 (hpaB)` is reported as 465 µM (O=C(O)/C=C/c1ccc(O)cc1; steady-state kinetics; pH 8, 37 °C).
The binding intensity of `SVWLRKETRV` is reported as 0.908 (human MAGI1-2/6 PDZ construct (MBP fusion); automated holdup; peptide, crude extract; concentration not given, uncorrected, unit not given; reference: biotin control resin, higher = stronger binding).
`enzyme (Cryptosporidium parvum, UniProt Q8IS93)` gave a Km of 1280 µM (O=C(O)c1cc(SSc2ccc([N+](=O)[O-])c(C(=O)O)c2)ccc1[N+](=O)[O-]; steady-state kinetics; pH 7.4, with: NADPH 150 µM).
For `B7 (enzyme)`, the Km was 26.5 µM (Nc1ncnc2c1ncn2[C@@H]1O[C@H](COP(=O)(O)OP(=O)(O)OP(=O)(O)O)[C@@H](O)[C@H]1O; steady-state kinetics; pH 7.4, 24 °C, apparent).
The Km of `B8 (pyrB)` is reported as 28 µM (NC(=O)OP(=O)(O)O; steady-state kinetics).
With `B9 (enzyme D25A)` the Km was 582 µM (N[C@H](COP(=O)(O)O)Cc1c[nH]cn1; steady-state kinetics; pH 7.8, 25 °C).

A few entries again:
For `B7 (enzyme)`, the Km was 26.5 µM (Nc1ncnc2c1ncn2[C@@H]1O[C@H](COP(=O)(O)OP(=O)(O)OP(=O)(O)O)[C@@H](O)[C@H]1O; steady-state kinetics; pH 7.4, 24 °C, apparent).
The Km of `B8 (pyrB)` is reported as 28 µM (NC(=O)OP(=O)(O)O; steady-state kinetics).
